Measurements from different studies.
Numbered parts are unrelated; each lists some results of a single study. Changes are numbered by the printed parent chain.

Set 1 — method: universal PBM; molecule type: double-stranded DNA, one strand shown; medium: in vitro; tested at: 600 nM; reading: higher = stronger binding; measurement: E-score
Target: Sal-like protein 4, full length isoform A (SALL4, Homo sapiens, UniProt Q9UJQ4, residues 1-1053)
Sequence of UniProt Q9UJQ4 (whole entry, looked up): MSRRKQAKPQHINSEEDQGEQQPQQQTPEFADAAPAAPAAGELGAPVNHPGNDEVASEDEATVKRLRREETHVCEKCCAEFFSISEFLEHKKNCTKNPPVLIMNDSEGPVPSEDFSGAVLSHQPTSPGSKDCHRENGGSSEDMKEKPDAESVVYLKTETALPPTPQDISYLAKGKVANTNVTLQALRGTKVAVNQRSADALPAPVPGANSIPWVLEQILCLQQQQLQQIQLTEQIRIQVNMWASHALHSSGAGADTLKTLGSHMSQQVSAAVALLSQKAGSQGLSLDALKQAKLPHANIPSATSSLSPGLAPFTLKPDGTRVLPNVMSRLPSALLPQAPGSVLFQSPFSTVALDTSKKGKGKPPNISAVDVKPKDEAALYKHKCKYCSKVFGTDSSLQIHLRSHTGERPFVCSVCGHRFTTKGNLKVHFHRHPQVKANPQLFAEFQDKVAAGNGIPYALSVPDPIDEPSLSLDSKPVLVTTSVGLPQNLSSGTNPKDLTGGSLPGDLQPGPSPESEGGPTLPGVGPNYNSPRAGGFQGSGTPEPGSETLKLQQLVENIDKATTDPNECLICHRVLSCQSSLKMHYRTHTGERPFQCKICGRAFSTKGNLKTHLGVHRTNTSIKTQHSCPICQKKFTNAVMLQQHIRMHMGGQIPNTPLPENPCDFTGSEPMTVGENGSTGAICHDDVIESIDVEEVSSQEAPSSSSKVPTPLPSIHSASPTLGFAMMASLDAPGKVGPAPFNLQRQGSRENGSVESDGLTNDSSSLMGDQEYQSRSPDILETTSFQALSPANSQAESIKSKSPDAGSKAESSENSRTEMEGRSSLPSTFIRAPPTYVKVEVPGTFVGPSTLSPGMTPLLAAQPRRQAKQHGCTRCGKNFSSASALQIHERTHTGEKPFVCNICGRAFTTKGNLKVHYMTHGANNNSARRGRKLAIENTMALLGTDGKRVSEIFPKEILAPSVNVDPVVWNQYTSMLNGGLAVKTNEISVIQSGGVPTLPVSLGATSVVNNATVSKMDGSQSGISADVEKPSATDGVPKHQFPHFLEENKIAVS
Setting: 8-mer, flanks averaged, mean of replicates
CAGAGTGC: -0.14
CCTTCCGA: 0.0285
TGCAGCAA: 0.0757
ATTGGTCG: 0.00843
CGCTCATA: 0.013
GCTGAGGA: -0.172
GGCCATGA: -0.224
CACACGCA: -0.251

Set 2 — method: protein-binding microarray; molecule type: double-stranded DNA, one strand shown; medium: in vitro; tested at: not given; reading: higher = stronger binding; measurement: E-score
Target: Protein max, full length (MAX, Homo sapiens, UniProt P61244-2, residues 1-151)
Setting: k-mer, scored over probes, only values ≥0.25
CCCATGCG: 0.446
CACGTTGA: 0.453
CACATGCC: 0.464
CACGTTCA: 0.298
CGTGGGTA: 0.351
ACGTGTCG: 0.438
CGTGGAAA: 0.344
GCATGACC: 0.393

Other studies, line by line
P1: viral docking peptide; KKAKRRLFTISDS; partner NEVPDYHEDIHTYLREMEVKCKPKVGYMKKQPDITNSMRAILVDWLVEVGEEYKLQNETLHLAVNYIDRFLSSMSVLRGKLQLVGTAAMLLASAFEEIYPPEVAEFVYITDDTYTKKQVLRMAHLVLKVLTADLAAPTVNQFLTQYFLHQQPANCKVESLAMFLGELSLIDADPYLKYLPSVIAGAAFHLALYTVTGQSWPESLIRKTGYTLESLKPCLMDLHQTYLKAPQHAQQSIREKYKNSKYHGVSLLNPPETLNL
FARSB (Homo sapiens, UniProt Q9NSD9) — interaction screen (FARSA (Homo sapiens, UniProt Q9Y285); cross-linking MS; hits only): cross-linked
P1 R5A — normalised enrichment score (CCNA2, cyclin fold, Cln2 fusion (human); yeast growth competition, sequencing; yeast; strong parent motif; reference: not given, higher = stronger binding): 2.35
EBNA1BP2 (Homo sapiens, UniProt Q99848) — cross-linked residues (DDX18 (Homo sapiens, UniProt Q9NVP1); cross-linking MS; cell fractions; added: DSSO): K45 to K656
GAPDH (Homo sapiens, UniProt P04406) — cross-linked residues (UBE4A (Homo sapiens, UniProt Q14139); cross-linking MS; cell fractions; added: DSSO): K5 to S1017
